Measured values pooled from the literature.
Lines come from different studies, so protocols differ. Values joined by “and” are separate records of one study, mostly repeats; a detail may differ. ± gives the spread as reported.
uncharacterized protein: uncharacterized protein (Spodoptera exigua, UniProt F1CEY0)

| SMILES | target or system | assay | test system | conditions | how to read | quantity | value |
| --- | --- | --- | --- | --- | --- | --- | --- |
| COc1cc(NC(=O)c2cnn(-c3ccc([N+](=O)[O-])cc3)c2C(F)(F)F)cc(OC)c1OC | PTGS2 (Homo sapiens, UniProt P35354) | enzyme activity, inhibitor | – | – | reference: COX-1 IC50 over COX-2 IC50 | selectivity ratio | 0.93 |
| N#Cc1ccc2c(c1)[C@H]1CCCN(C(=O)c3ccc4[nH]cnc4c3)[C@H]1C2 | – | refers to: androstenedione | human female, Phase II trial | oral, 20 mg once daily, last treatment, HPA axis, mean | – | plasma level | 4.08 nmol/L |
| Cn1cc(-c2ccc(-c3cncc(Cl)c3N3CCC4(CCNC4=O)CC3)cc2)cn1 | COLO 205 | gene expression, microarray, refers to: SAT1 mRNA | – | concentration not given, 6 h | reference: untreated cells | log2 fold change | 2.74 |
| COCCC(=O)N1CCC(Oc2ccccc2)C1 (stereo not drawn) | DNA mismatch repair protein Msh6 (Homo sapiens, UniProt P52701) | binding, affinity selection mass spectrometry | – | – | reference: other proteins in batch | fold enrichment | 1.47 |
| Nc1cccc(CC2SC(=O)NC2=O)c1 (stereo not drawn) | ADORA2A (Homo sapiens, UniProt P29274) | radioligand displacement | – | added: [3H]ZM241385 | – | ligand efficiency | 0.47 |
| Cc1cc(Nc2ccc(S(F)(F)(F)(F)F)cc2)n2nc(C(C)(F)F)nc2n1 | Plasmodium falciparum | – | P. falciparum malaria patients | oral, 250 mg | – | patients with cardiac disorders | 0% |
| Nc1ccc(C(=O)O)cc1 | BEST1, with wild-type BEST1 (Homo sapiens, UniProt O76090, A243T) | whole-cell patch clamp | HEK293 co-expressing WT and A243T mutant | concentration not given, membrane potential -100 mV | – | current density | -30.3 pA/pF and -25.9 pA/pF and -8.37 pA/pF and -26.1 pA/pF and -3.92 pA/pF and -32.1 pA/pF and -21.4 pA/pF |
| CC(C)C[C@H](NC(=O)C[C@H](O)[C@H](CC(C)C)NC(=O)[C@H](Cc1c[nH]cn1)NC(=O)CNC(=O)[C@@H](NC(=O)[C@H](C)NC(=O)[C@H](Cc1c[nH]c2ccccc12)NC(=O)[C@H](CCC(N)=O)NC(=O)[C@@H](Cc1ccccc1)NC(=O)COCCOCCNC(=O)CCC(C(=O)O)N1CCN(CC(=O)O)CCN(CC(=O)O)CCN(CC(=O)O)CC1)C(C)C)C(N)=O (stereo partly drawn) [lutetium-177 labelled] | – | – | female BALB/c nu/nu mice, bladder | intravenous, 100 pmol, 4 h, added: PA 300 µg | – | tissue uptake | 17 ± 17 %ID/g |
| C=CC(=O)N1CCC(COCC(=O)N2CCN(c3nc(-c4cnc(N)nc4C(F)F)nc(N4CCOC[C@@H]4C)n3)CC2)CC1 | SNRK (Homo sapiens, UniProt Q9NRH2) | KINOMEscan | – | 1 µM | – | remaining binding | 87% |
| O=C(OCc1ccccc1)c1ccccc1O | Nicotiana benthamiana | enzyme activity, substrate, UPLC-UV/MS | – | 10 min, pH 7, 25 °C | – | Km | 50.8 ± 1.96 µM |
| Nc1ncnc2c1ncn2[C@@H]1O[C@H](COP(=O)(O)OP(=O)(O)OP(=O)(O)O)[C@@H](O)[C@H]1O | P2X purinoceptor 7 (P2rx7, Rattus norvegicus, UniProt Q64663, I214A/Q143A/R125A) | ion current, agonist, two-electrode voltage clamp | Xenopus oocytes | 300 µM | – | normalized current | 0.736 and 0.65 and 0.651 |
| O=C(O)CNC(=O)Cc1ccccc1 | – | – | ventricular cardiomyocytes, C57BL/6 mouse | dose not given, 0.112 s | – | sarcomere length | 1.72 µm |
| CC[C@H](C)[C@@H]1NC(=O)[C@H](C(C)C)NC(=O)[C@H](C(C)C)NC(=O)[C@H](CC(C)C)NC(=O)C[C@@H](C(=O)N[C@@H](Cc2c[nH]c3ccccc23)C(=O)N[C@@H](CC(N)=O)C(=O)N[C@@H](C)C(=O)N2CCC[C@H]2C(=O)NCC(=O)N[C@@H](Cc2c[nH]c3ccccc23)C(=O)N[C@@H](Cc2ccc(O[C@@H]3O[C@H](CO)[C@@H](O)[C@H](O)[C@H]3O)cc2)C(=O)O)NC(=O)[C@H](C)NC(=O)[C@H](CCC(N)=O)NC(=O)[C@H](C(C)C)NC1=O | TLR4 (Homo sapiens, UniProt O00206) | antagonist, ELISA | – | 1 µg/mL, added: LPS | reference: DMSO control, lower means stronger antagonism | OD450 in LPS binding ELISA | 0.42 a.u. and 0.4 a.u. and 0.404 a.u. and 0.419 a.u. |
| CC(C)=CCC/C(C)=C/CC/C(C)=C/CO | uncharacterized protein | binding, competitor, fluorescence displacement | – | 20 µM, pH 7.4, added: 1-NPN 20 µM | reference: 1-NPN alone | relative fluorescence | 50.6% |
| CCN1CCC[C@H]1CNC(=O)c1c(O)c(Cl)cc(Cl)c1OC | G-protein coupled receptor 26 (GPR26, Homo sapiens, UniProt Q8NDV2) | β-arrestin recruitment, TANGO luminescence, refers to: GPR26 | – | concentration not given | reference: basal luminescence | log2 fold change | 0.103 |
| CC(=O)OCCC(C)C | uncharacterized protein | binding, competitor, fluorescence displacement | – | 20 µM, pH 7.4, added: 1-NPN 20 µM | reference: 1-NPN alone | relative fluorescence | 76.5% |
| O=c1nc(SCc2cc(F)cc(C(F)(F)F)c2)nc(SCc2csc3ccc(Cl)cc23)[nH]1 | TOP2A (Homo sapiens, UniProt P11388) | DNA cleavage | – | 1.95 µM | – | mean linear DNA | 0% |
| COc1cc(Nc2ncc3c(n2)-c2ccc(Cl)cc2C(c2c(F)cccc2OC)=NC3)ccc1C(=O)O | PDGFRA T674I | kinase activity | – | 1 µM | – | remaining activity | 95% |
| c1ccc2c(Oc3nc(Nc4ccc(N5CCOCC5)cc4)c4ncn(C5CCCCC5)c4n3)cccc2c1 | Protein smoothened (SMO, Homo sapiens, UniProt Q99835) | agonist | CHO cell membranes, SMO transfected | concentration not given | reference: basal | stimulation | 19.8 ± 2.6% |
| O=S(=O)(O)C1CCNCC1 | SLC6A6 (Homo sapiens, UniProt P31641, G62A) | binding, microscale thermophoresis | – | 250 µM, room temperature, added: 50 nM labelled protein | higher = more binding | normalised MST signal | -0.00255 |
| NC(=O)c1cnc2[nH]ccc2c1N[C@@H]1[C@@H]2CC3C[C@H]1C[C@@](O)(C3)C2 | – | CD8+ memory T cells, flow cytometry | Caucasian humans, peripheral blood | 60 mg single dose | reference: baseline | percent change | 1.25% |
| COC(=O)C(Cc1cccc(OC)c1I)NC(=O)CN (stereo not drawn) | OPRK1 (Homo sapiens, UniProt P41145) | binding | – | concentration not given | – | activity | inactive |
| CC(C)[C@H](NC(=O)[C@H](Cc1ccc(O)cc1)NC(=O)[C@H](Cc1ccc(O)cc1)NC(=O)[C@@H]1CCCN1C(=O)[C@H](CCC(=O)O)NC(=O)[C@H](CCC(=O)O)NC(=O)[C@H](Cc1c[nH]c2ccccc12)NC(=O)[C@@H]1CCCN1C(=O)[C@@H](NC(=O)[C@H](CCC(N)=O)NC(=O)c1ccc2c(c1)C(=O)OC21c2ccc(O)cc2Oc2cc(O)ccc21)C(C)C)C(=O)N[C@H](C(=O)N[C@@H](CCCCN)C(=O)N[C@@H](CCCCN)C(=O)N[C@@H](CO)C(=O)N[C@@H](CO)C(=O)NCC(=O)NCC(N)=O)C(C)C | – | – | human, plasma | intravenous infusion, 400 mg, 0.5 h after infusion start | – | plasma concentration | 27700 ng/mL and 19500 ng/mL |
| C=CC(=O)N1CCC(C(=O)NCC(=O)N2CCN(c3nc(-c4cnc(N)nc4C(F)F)nc(N4CCOCC4)n3)CC2)CC1 | ULK1 (Homo sapiens, UniProt O75385) | KINOMEscan | – | 1 µM | – | remaining binding | 85% |

Repeated from above:
| SMILES | target or system | assay | test system | conditions | how to read | quantity | value |
| --- | --- | --- | --- | --- | --- | --- | --- |
| Cc1cc(Nc2ccc(S(F)(F)(F)(F)F)cc2)n2nc(C(C)(F)F)nc2n1 | Plasmodium falciparum | – | P. falciparum malaria patients | oral, 250 mg | – | patients with cardiac disorders | 0% |
| c1ccc2c(Oc3nc(Nc4ccc(N5CCOCC5)cc4)c4ncn(C5CCCCC5)c4n3)cccc2c1 | Protein smoothened (SMO, Homo sapiens, UniProt Q99835) | agonist | CHO cell membranes, SMO transfected | concentration not given | reference: basal | stimulation | 19.8 ± 2.6% |
| COc1cc(NC(=O)c2cnn(-c3ccc([N+](=O)[O-])cc3)c2C(F)(F)F)cc(OC)c1OC | PTGS2 (Homo sapiens, UniProt P35354) | enzyme activity, inhibitor | – | – | reference: COX-1 IC50 over COX-2 IC50 | selectivity ratio | 0.93 |
